Results of several laboratories.
Each line is one published result; not all experiments were run side by side. ± gives the spread as reported.

SMILES | target or system | test | test system | setting | endpoint | value
C(#Cc1c[nH]c2nccc(-c3ccsc3)c12)c1cccnc1 | Venezuelan equine encephalitis virus | viral replication | U-87 MG, TC-83 | – | EC50 | 2090 ± 140 nM
Cc1ccc(C)c(Nc2cc(C(=O)NCCCN(C)C3CCCCC3)c3ccccc3n2)c1 | SARS-CoV-2 | cytopathic effect | USA_WA1/2020 | retest, 8-point, duplicates | maximum response | 58.9%
CNC(=O)[C@@H](NC(=O)[C@H](CC(C)C)[C@H](O)C(=O)NO)C(C)(C)C | Daboia russelii | – | North population, mouse | 120 µg, venom preincubated, observed to 24 h | time to death | > 24 h
CC1(C(=O)N2CCC3(CC2)CC(CNS(C)(=O)=O)CCO3)CCCC1 (centres unmarked) | Venezuelan equine encephalitis virus | viral replication | – | – | EC50 | > 39800 nM
Cn1cc(CN2CCCC(COc3ccccc3C(=O)N3CCCCC3)C2)c2ccccc21 (centres unmarked) | SARS-CoV-2 | cytopathic effect | USA_WA1/2020 | retest, 8-point, duplicates | efficacy | 9.96%
CC[C@H](C)[C@H](NC(=O)[C@H](CC(C)C)NC(=O)[C@H](Cc1c[nH]c2ccccc12)NC(=O)[C@H](CCC(N)=O)NC(=O)[C@@H](NC(=O)[C@H](Cc1ccccc1)NC(=O)[C@H](C)NC(=O)[C@H](CCCCNC(=O)COCCOCCNC(=O)COCCOCCNC(=O)CC[C@H](NC(=O)CCCCCCCCCCCCCCCCCCC(=O)O)C(=O)O)NC(=O)[C@H](CCC(N)=O)NC(=O)[C@H](C)NC(=O)[C@@H](NC(=O)[C@H](CCCCN)NC(=O)[C@H](CC(=O)O)NC(=O)[C@H](CC(C)C)NC(=O)C(C)(C)NC(=O)[C@@H](NC(=O)[C@H](CO)NC(=O)[C@H](Cc1ccc(O)cc1)NC(=O)[C@H](CC(=O)O)NC(=O)[C@H](CO)NC(=O)[C@@H](NC(=O)[C@H](Cc1ccccc1)NC(=O)[C@@H](NC(=O)CNC(=O)[C@H](CCC(=O)O)NC(=O)C(C)(C)NC(=O)[C@@H](N)Cc1ccc(O)cc1)[C@@H](C)O)[C@@H](C)O)[C@@H](C)CC)[C@@H](C)CC)C(C)C)C(=O)N[C@@H](C)C(=O)NCC(=O)NCC(=O)N1CCC[C@H]1C(=O)N[C@@H](CO)C(=O)N[C@@H](CO)C(=O)NCC(=O)N[C@@H](C)C(=O)N1CCC[C@H]1C(=O)N1CCC[C@H]1C(=O)N1CCC[C@H]1C(=O)N[C@@H](CO)C(N)=O | – | measured: treatment-emergent feeling hot | healthy subjects | 0.5 mg, multiple ascending dose | subjects with adverse event | 0%
Nc1ncnc2c([C@@H]3N[C@H](CO)[C@@H](O)[C@H]3O)c[nH]c12 | Venezuelan equine encephalitis virus | viral replication | HeLa, SH3 | 100 µM | inhibition | 29.2%
C(#Cc1c[nH]c2nccc(-c3cccs3)c12)c1cccnc1 | Venezuelan equine encephalitis virus | viral replication | U-87 MG, TC-83 | – | EC50 | 1710 ± 70 nM
CN(C)S(=O)(=O)NCC1CCOC2(CCN(C(=O)C3(c4ccccc4)CCCO3)CC2)C1 (centres unmarked) | Venezuelan equine encephalitis virus | viral replication | – | 40 µM | inhibition | < 10%
CS(=O)(=O)C=CCNC(=O)c1ccc2c(c1)NC(=O)CC2 | Venezuelan equine encephalitis virus | viral replication | MRC5 | – | IC50 | > 10000 nM
Cn1cnc(Cn2c(=O)[nH]/c(=N\c3cc4cn(C)nc4cc3Cl)n(Cc3cc(F)c(F)cc3F)c2=O)n1 | – | – | human, all renal function groups | oral, 375 mg, decreased GFR TEAE, Mild severity | patients with adverse event | 0%
COc1ccc(-c2ncnc3[nH]cc(C#Cc4cccnc4)c23)cc1OC | Venezuelan equine encephalitis virus | viral replication | U-87 MG, TC-83 | – | EC50 | 6040 ± 1380 nM
O=C(N1CCC2(CC1)CC(CN1CCCCS1(=O)=O)CCO2)C1(c2cc(F)cc(F)c2)CCCC1 (centres unmarked) | Venezuelan equine encephalitis virus | viral replication | – | – | EC50 | 1580 nM
COc1ccc(-c2ccnc3[nH]nc(C#Cc4cccnc4)c23)cc1OC | Venezuelan equine encephalitis virus | viral replication | U-87 MG, TC-83 | – | EC50 | 920 ± 10 nM
O=c1nc(NO)ccn1[C@@H]1O[C@H](CO)[C@@H](O)[C@H]1O | Venezuelan equine encephalitis virus | viral replication, nLuc reporter | TC-83 nLuc-nsP3 | – | IC50 | 1600 ± 500 nM
NC(=O)NCC1CCOC2(CCN(C(=O)C3(c4ccccc4)CCCC3)CC2)C1 (centres unmarked) | Venezuelan equine encephalitis virus | viral replication | – | – | EC50 | 3980 nM
O=C(CCl)NCC#CC1CCCCO1 (centres unmarked) | Venezuelan equine encephalitis virus | viral replication | MRC5 | – | IC50 | > 10000 nM
CS(=O)(=O)NCC1CCOC2(CCN(C(=O)C3(c4ccccc4)CCC3)CC2)C1 (centres unmarked) | Venezuelan equine encephalitis virus | viral replication | – | – | EC50 | > 39800 nM
O=C(N1CCC2(CC1)C[C@H](CN1CCCCS1(=O)=O)CCO2)C1(c2ccccc2)CCCC1 | Venezuelan equine encephalitis virus | viral replication | MRC5 | – | EC50 | 270 nM
COc1cccc(-c2nc(C(=O)NCC=CS(C)(=O)=O)c(C)[nH]2)c1 | Venezuelan equine encephalitis virus | viral replication | MRC5 | – | IC50 | > 10000 nM

Some of these lines once more:
SMILES | target or system | test | test system | setting | endpoint | value
Cn1cnc(Cn2c(=O)[nH]/c(=N\c3cc4cn(C)nc4cc3Cl)n(Cc3cc(F)c(F)cc3F)c2=O)n1 | – | – | human, all renal function groups | oral, 375 mg, decreased GFR TEAE, Mild severity | patients with adverse event | 0%
COc1ccc(-c2ncnc3[nH]cc(C#Cc4cccnc4)c23)cc1OC | Venezuelan equine encephalitis virus | viral replication | U-87 MG, TC-83 | – | EC50 | 6040 ± 1380 nM
